Measurements gathered from unrelated publications.
Lines come from different studies, so protocols differ.
Action: inhibitor
CDK2 with cyclin A1: Cyclin-dependent kinase 2, with cyclin A1 (CDK2, Homo sapiens, UniProt P24941)
CDK2: Cyclin-dependent kinase 2 (CDK2, Homo sapiens, UniProt P24941)
CDK2 with cyclin E: Cyclin-dependent kinase 2, with cyclin E (CDK2, Homo sapiens, UniProt P24941)

Structure (SMILES) | target | test | IC50
N=C(N)NCCC[C@@H]1NC(=O)[C@H](Cc2c[nH]c3ccccc23)NC(=O)[C@H](CCCNC(=N)N)NC(=O)[C@H](Cc2c[nH]c3ccccc23)NC(=O)[C@H](CCCNC(=N)N)NC(=O)[C@H](Cc2c[nH]c3ccccc23)NC(=O)[C@H](CCCNC(=N)N)NC(=O)[C@H](Cc2c[nH]c3ccccc23)NC(=O)[C@H](CCCNC(=N)N)NC(=O)[C@H](Cc2c[nH]c3ccccc23)NC(=O)[C@H](CCCNC(=N)N)NC(=O)[C@H](Cc2c[nH]c3ccccc23)NC(=O)[C@H](CCCNC(=N)N)NC(=O)[C@H](Cc2c[nH]c3ccccc23)NC(=O)[C@H](CCCNC(=N)N)NC(=O)[C@H](Cc2c[nH]c3ccccc23)NC(=O)[C@H](CCCNC(=N)N)NC(=O)[C@H](Cc2c[nH]c3ccccc23)NC1=O | CDK2 with cyclin A1 | enzyme activity | 570 nM
CC1=CC[C@]2(C(=O)O[C@H]3OC[C@@H](O)[C@@H](O)[C@@H]3OS(=O)(=O)O)CC[C@]3(C)C(CCC4[C@@]5(C)CC[C@H](O)C(C)(C)C5CC[C@]43C)C2[C@H]1C (some centres unmarked) | CDK2 | enzyme activity | 118 nM
CC(=O)N[C@@H](Cc1c[nH]c2ccccc12)C(=O)N[C@@H](Cc1c[nH]c2ccccc12)C(=O)N[C@@H](Cc1c[nH]c2ccccc12)C(=O)N[C@@H](Cc1c[nH]c2ccccc12)C(=O)N[C@@H](Cc1c[nH]c2ccccc12)C(=O)N[C@@H](Cc1c[nH]c2ccccc12)C(=O)N[C@@H](Cc1c[nH]c2ccccc12)C(=O)NCCCC[C@@H]1NC(=O)[C@H](CCCNC(=N)N)NC(=O)[C@H](CCCNC(=N)N)NC(=O)[C@H](CCCNC(=N)N)NC(=O)[C@H](CCCNC(=N)N)NC(=O)[C@H](CCCNC(=N)N)NC1=O | CDK2 with cyclin A1 | enzyme activity | 2630 nM
CN(C(=O)c1ccn2ncc(-c3ccc(C(N)=O)cc3)c2c1)c1ccc(C#N)cn1 | CDK2 | – | > 10000 nM
COC(=O)N[C@H]1CC[C@@H](Nc2cc(NCc3ccccc3F)n3ncc(C(C)C)c3n2)CC1 | CDK2 with cyclin E | enzyme activity, luciferase kinase | 71 nM
Cc1nnc(NC(=O)CSc2nnc(-c3ccc4c(c3)OCCO4)o2)s1 | CDK2 | enzyme activity, ADP detection | 67 nM
N#Cc1c(N)nc(N)nc1OCC1CCCCC1 | CDK2 | enzyme activity | 60000 nM
O=C(COC(=O)CCCn1c(=O)oc2cc([N+](=O)[O-])ccc21)Nc1cccc(Cl)c1 | CDK2 | enzyme activity, ADP detection | 43.1 nM
N=C(N)NCCC[C@@H]1NC(=O)[C@H](Cc2c[nH]c3ccccc23)NC(=O)[C@H](CCCNC(=N)N)NC(=O)[C@H](Cc2c[nH]c3ccccc23)NC(=O)[C@H](CCCNC(=N)N)NC(=O)[C@H](Cc2c[nH]c3ccccc23)NC(=O)[C@H](CCCNC(=N)N)NC(=O)[C@H](Cc2c[nH]c3ccccc23)NC(=O)[C@H](CCCNC(=N)N)NC(=O)[C@H](Cc2c[nH]c3ccccc23)NC(=O)[C@H](CCCNC(=N)N)NC(=O)[C@H](Cc2c[nH]c3ccccc23)NC(=O)[C@H](CCCNC(=N)N)NC(=O)[C@H](Cc2c[nH]c3ccccc23)NC(=O)[C@H](CCCNC(=N)N)NC(=O)[C@H](Cc2c[nH]c3ccccc23)NC1=O | CDK2 with cyclin A1 | enzyme activity | 920 nM
CN(C)C/C=C/C(=O)Nc1ccc(C(=O)N[C@H]2CCC[C@@H](Nc3ncc(Cl)c(-c4c[nH]c5ccccc45)n3)C2)nc1 | CDK2 | enzyme activity | 321 nM
Cc1ccc(C(C)C)cc1.Oc1ccccc1C=NNC1=Nc2ccccc2-c2[nH]c3ccc(Br)cc3c2C1.[Cl-].[Cl][Os+] | CDK2 with cyclin E | enzyme activity, radiometric | > 40000 nM

A few entries again:
Structure (SMILES) | target | test | IC50
CN(C)C/C=C/C(=O)Nc1ccc(C(=O)N[C@H]2CCC[C@@H](Nc3ncc(Cl)c(-c4c[nH]c5ccccc45)n3)C2)nc1 | CDK2 | enzyme activity | 321 nM
